Measured values gathered from unrelated publications.
A part holds a random share of what one study measured. Substitutions count along the parent as printed.

Sample 1
Target: NFE2, bZIP domain (human)
Method: DHFR protein complementation
Sample: yeast
Setting: single substitutions, most at no-binding floor
Relative to: wild-type JUN-FOS pair
Direction: higher = stronger binding
Measurement: binding fitness
Starting sequence: JUN, bZIP domain (human); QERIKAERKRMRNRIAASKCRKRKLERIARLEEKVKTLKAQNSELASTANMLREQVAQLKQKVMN; partner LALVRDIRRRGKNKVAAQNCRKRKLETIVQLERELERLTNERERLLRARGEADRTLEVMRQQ
L38K: -1.27 natural log
A49F: -1.47 natural log
L45R: -1.5 natural log
R53W: -1.4 natural log
K39M: -1.45 natural log
A49V: -1.06 natural log
Q55I: -1.33 natural log
V35W: -1.51 natural log
A29S: -1.4 natural log
L45D: -1.48 natural log

Sample 2
Target: Centromere-binding protein 1, full length, N-terminal tag (CBF1, Saccharomyces cerevisiae, UniProt P17106, residues 1-351)
Chain of UniProt P17106 (whole entry, looked up): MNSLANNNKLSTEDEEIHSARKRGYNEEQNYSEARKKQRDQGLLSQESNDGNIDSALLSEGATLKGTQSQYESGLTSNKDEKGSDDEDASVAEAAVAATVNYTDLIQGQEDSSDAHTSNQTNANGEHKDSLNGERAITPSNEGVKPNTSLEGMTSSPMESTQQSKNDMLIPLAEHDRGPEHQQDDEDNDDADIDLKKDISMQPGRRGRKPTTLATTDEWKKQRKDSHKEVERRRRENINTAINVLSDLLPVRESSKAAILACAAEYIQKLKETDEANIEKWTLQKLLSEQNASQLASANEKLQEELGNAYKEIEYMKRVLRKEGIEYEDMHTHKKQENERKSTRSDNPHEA
Method: protein-binding microarray
Form: double-stranded DNA, one strand shown
Sample: in vitro
Concentration: 0.8 µM
Setting: whole 60-bp probe, no competitor
Direction: higher = stronger binding
Measurement: fluorescence intensity
All sequences stand within: … GTCTTGATTCGCTTGACGCTGCTG
CTAAAACCGCCCAATCACGCTGACCCCTTTGGCTTC: 605 a.u.
TGTACGAAGCTATACTACGTGACTATAGTAGTTAGG: 678 a.u.
CTAGAAGCGTCTTGACACGTTTTCAAAAAAGGATTC: 661 a.u.
GAACGCCGCACAAAGGTGACGATTTTTGGGCTATAG: 510 a.u.
CTAATTAAATAGAAATATCACATGGCGATCCACTTC: 1230 a.u.
GAACAGTGTGGCGGTCACACTGGGCCCACTGGTTAG: 524 a.u.
CTAAAAACCGTGCAGGACGTGGTCTAAGCTACTTTC: 527 a.u.
GAATTTCTATATTTACATGTGGGAAATGTGGTTTAG: 511 a.u.
GAACCTAAACAACCACACGGGGTTAAGCAAGAATAG: 577 a.u.
CTACAGTCCAAAAAGTACGTGCACCAAAAGAAGTTC: 595 a.u.
CTAAAATATGCATATCATGTGGTTACATAAGAATTC: 1580 a.u.
CCTAACTACTATAATCAGGTGATATAGCTTCGTACA: 2300 a.u.
CTAGACAAACAGGGCCAGCTGATGCATATGTTTTTC: 568 a.u.
CTATTGATGAAATAGCACGTTCCCTTTGTTTGTTTC: 647 a.u.
CCTAACTACTATACAAGCGTGGGATAGCTTCGTACA: 519 a.u.

Sample 3
Target: RING finger protein unkempt homolog, zinc fingers 1-6, SBP tag (UNK, Homo sapiens, UniProt Q9C0B0, residues 30-357)
Chain of UniProt Q9C0B0 (30-357, looked up): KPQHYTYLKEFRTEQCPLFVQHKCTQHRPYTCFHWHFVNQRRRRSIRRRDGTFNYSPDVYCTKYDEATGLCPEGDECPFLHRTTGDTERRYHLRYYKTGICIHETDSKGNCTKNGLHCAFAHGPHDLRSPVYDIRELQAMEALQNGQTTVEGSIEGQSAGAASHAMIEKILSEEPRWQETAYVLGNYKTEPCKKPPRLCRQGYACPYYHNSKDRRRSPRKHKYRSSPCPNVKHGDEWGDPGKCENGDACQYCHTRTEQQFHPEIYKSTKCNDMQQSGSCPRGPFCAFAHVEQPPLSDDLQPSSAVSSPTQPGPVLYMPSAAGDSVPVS
Method: RNA Bind-n-Seq
Form: RNA
Sample: in vitro
Concentration: 100 nM
Setting: RNA with constant flanks, vertebrate orthologous sites, ends assumed
Relative to: input RNA pool
Direction: higher = stronger binding
Measurement: bound/input enrichment
All sequences stand within: GGGAGUUCUACAGUCCGACGAUC … CAACAGAGGAUUGAGCAUCA
GUCGUCUGAUUGGAUGAAGACUGUCCCAAGUUACAACCAAACAAAUAGCUCCAUGGACUUUAGAAAUUACAUGAUGAGAGAUGAGAAUCUGGAACCACUGCCCAAAAACUGGGAAAUGGC: 0.672 ratio
GAAAUGGCCAGUGGAGGAAUACCUGCCUUGGCCUUGCCUCCCCUCCUUGCCACCUGCCCCUAGGUAUUUUUUUUUUAACCACCACAUGAAUCCGGUUGGCACUUCCUCCCCUGACCAGCU: 2.49 ratio
GGUUAAUGUGUUAUUUAUUGAGUAUAGUUUGUGCUAAGCAUUGUGUUAGAUUUAAAAAAUUAGUGGAUUGACUCCACUUUGUUGUGUUGUUUUCAUUGUUGAAAAUAAAUAUAACUUUGU: 0.961 ratio
CCUCUGAACCCCAUUUCUUCUGUUUCAUAGUGUAGAAGUAUUCUUUUUCAAUUGUAUUAUUAGUGGACUUGUUUUAAUUUUAGGGAAACUUUCAGUACAGAUACUGUGAGCUUACAUGGA: 1.77 ratio
ACACGUAUAUUGUGGCGUAUAGUCAACAUGGAAGUAGACCGGCUCUGCUGAUUUGAAAUUUAGAUUUUUUUAAUUAUGUACUGGGGACAGGUUUUUGUCGCUUUACAUUGCUUCCUAGUU: 4.08 ratio
CAACGCCAUGGUGGACGGCUCAGAGCUGAGGAAAGUGCGCUCCAACUCCAGAGUGUACCACCGAUACUUUCUGCUGGAUGCUGAUAUGCAGUCUCUUAGGUGGGAGCCCUCUAAAAAGGA: 0.428 ratio
GGAGCAGCAUAGGCUGUUCAUGCUUUGGGAAAAUGAGCUUUGCUUUUUUAAAUAUUUAAAUAGGAUACUUUUAUAUGAUGGGUGCUUUGAGUGUGAAUGCAGCAGGCUCCAUUUCUGAGG: 0.991 ratio
UCCCCGUUACCCCUAAAGUAGACCAUUUUUUAAAUUGUGUUGCCACCACUUCUAAAAAUUUAGCAAUAUUAGAAUAGGAUACUAGUGAAGUAAGAAAUUUUGCUUGUUGUUUUGCAAACC: 5.07 ratio

Sample 4
Target: TAR DNA-binding protein 43, full length, His tag (TARDBP, Homo sapiens, UniProt Q13148, residues 1-414)
Method: RNA Bind-n-Seq
Form: RNA
Sample: in vitro
Concentration: 20 nM
Setting: 6-mer, flanks averaged, single round
With: 150 mM KCl
Relative to: input library
Direction: higher = stronger binding
Measurement: 6-mer enrichment (R)
GGAAAA: 1.08
GGAGAC: 1.59
ACCGUG: 0.85
UCUCAG: 0.624
GGACCA: 1.1
AACUGC: 0.642
GGUCAG: 1.65
CCUCCG: 0.626
CCCUAU: 0.643
UUAUUU: 0.703
AUAUUU: 0.657
GAUCAG: 0.901
AAGCUU: 0.578
AUACCA: 0.615

Sample 5
Target: RNA binding protein fox-1 homolog 2, RRM domain, GST-SBP tag (RBFOX2, Homo sapiens, UniProt O43251-10, residues 100-194)
Method: RNA Bind-n-Seq
Form: RNA
Sample: in vitro
Concentration: 365 nM
Setting: natural RNA segment, single round, ends assumed
Relative to: no-protein control
Direction: higher = stronger binding
Measurement: RBNS enrichment (R)
All sequences stand within: GGGAGUUCUACAGUCCGACGAUC … UGGAAUUCUCGGGUGCCAA
Residues (chain): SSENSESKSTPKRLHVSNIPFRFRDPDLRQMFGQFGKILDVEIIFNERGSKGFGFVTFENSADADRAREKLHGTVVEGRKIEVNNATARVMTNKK
CAAGACUUUGUACCGUCACUCAUUUGUAUAAGUGCGCUUCGUCACUGCACGGGCCCUGCUCCUGCAACAUGGAACUGUCGCGUAGCACCUGUACAAGAGACCCGGCCACU: 0.26
AGCAUUUUCUUUAUCUCCGGAUAGCCAUUUCCUGGACUUUUGAACUUCCCAUCUUCUAUGCUUAUGUCCCACUGUGCCUGCUCCCCCAUCCUCUUUCUUGUAGCCUUUUG: 6.79
CUUGGUGUCUGACUUCAGAGAGUCCUACAUGAACUCAGUAAUCCACAUCUCUCACACAGCUGAGAGUCACCUUUCCAGGCGGGCCUGGCCUUGUGUAGAAAGUCUCUGGG: 0.443
AUAAAGCAUUGUCUGUUCCAGAGUGGCCUUUGAAGAGACUGAAUAAUCACUUCGUCAUAAUGUUAAGGGAGAUGCUAGUGUGUGGCAGCCAUGAAAAGUUACACAUACAC: 0.422
GACAUAUGAUCCCCACAAACUGUGGGAGUGAUUGGCCAGGCCUUGUUUUGUUUGUUUGUUUGUUUGUGUUUUUGUUCUUUUGAAGAAUAGAGUGGUAUUUAGAAAAUAAA: 3.37
AUAAGUAUUUGCUCUUAAAAUUUACUACUUAGUAGCAUGAUUAUUUUUGUUCUGUUGAUGAAGCAAAUUUGACAGAAUAUUAUUUCUCCAUAUCACACAUAUCUACACUA: 0.704
AUUUCCCUCCUGGGAGAGAAGGAGAUCAGGGCAACUCGGAGAGGGCUGCGAGCAUUUCCCUCCCGGGAGAGGAGAUCAGGGCGACCUGCACGCACUGCGUAGAGCCUGGA: 0.312
GACCUGAAGGCUGCCAACACUCCUCUAAGGACACUGGGUCACAUGCCAGCCACCUGUUCUCGCCACCGGCCACCACGUGCCGGGCCGCCAUCGGAGGUGCCUGAAGAGCU: 0.345
GAAAGGAAAAAAAAGUGAAAGUUGGUAUUUAUUUCUGUGCUUUAAUUGUCUCUGAAAAUAAUGACAGUUUAUAAAAUGUUUAGGUACAAAGGCAUAAAUGAUAAUAAGUA: 0.565
GAGACAAUAAUUAGACAAUACUGUAUAAUUAGUUUUACUUAAUAGAUUAUCAUCUUGUGAGAAGAGAUGUUUAAACGUGGUAAAUCACUUCAUAUUACAAAACAGUUUUA: 0.478
CUUCGAUUCCUGGUUAUUUGGACCAUUGACUCAUCAUGGACUAUAUAAUGUAAUAAGAUUCUUUUCUCUUAAGGUAUCCUUGAAUUACACCAAAGAACCAGAAACUUAAU: 0.553
GCACACGUUAGGAGGAGUCCUCAUCAGCUGUUCUCAUUGCCAGUGAGAUAUAUUCAGUAUUGUAGAUACUACACUAAUUUCCAACAUAAGAGGCAGGAAGAGUUUUGAUU: 0.447

Sample 6
Target: Histone acetyltransferase KAT6A, winged helix 2, GST fusion (KAT6A, Homo sapiens, UniProt Q92794, residues 85-181)
Method: protein binding microarray
Form: double-stranded DNA, one strand shown
Sample: in vitro
Concentration: not given
Setting: 8-mer, flanks averaged, mean of 2 arrays, mostly near background
Relative to: not given
Direction: higher = stronger binding
Measurement: E-score
Target sequence (chain): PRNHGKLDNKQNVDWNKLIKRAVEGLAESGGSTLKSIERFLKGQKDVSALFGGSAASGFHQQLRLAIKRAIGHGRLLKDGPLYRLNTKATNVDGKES
GTCCTCTA: -0.15
CTTGCCTA: -0.0604
AATTCAGC: -0.00656
CGCCCGAC: 0.261
GCATTGGA: -0.221
CACCGCTG: 0.0781
GACTCTCC: -0.167
TGCAAACA: -0.0791
AATAAGCT: 0.0745
CATATAAG: -0.062
ATGAGCGA: 0.151
GAAGGAAC: 0.0412
ATTTCCTA: 0.0985
ACTAGGCG: 0.172
GCGAGTTA: 0.151
GTAAACCA: -0.145
AGAACACG: -0.0769
ATACGAGG: -0.153
ATGCTCTG: 0.108
ATTTCGGA: 0.0464
CAACTATA: -0.0916
CATTTCGA: -0.0825
CTAACACC: -0.108
CTTGCTGA: 0.0603
CTTCTATC: -0.074

Repeated from above (sample 3):
GAAAUGGCCAGUGGAGGAAUACCUGCCUUGGCCUUGCCUCCCCUCCUUGCCACCUGCCCCUAGGUAUUUUUUUUUUAACCACCACAUGAAUCCGGUUGGCACUUCCUCCCCUGACCAGCU: 2.49 ratio
GGUUAAUGUGUUAUUUAUUGAGUAUAGUUUGUGCUAAGCAUUGUGUUAGAUUUAAAAAAUUAGUGGAUUGACUCCACUUUGUUGUGUUGUUUUCAUUGUUGAAAAUAAAUAUAACUUUGU: 0.961 ratio
CCUCUGAACCCCAUUUCUUCUGUUUCAUAGUGUAGAAGUAUUCUUUUUCAAUUGUAUUAUUAGUGGACUUGUUUUAAUUUUAGGGAAACUUUCAGUACAGAUACUGUGAGCUUACAUGGA: 1.77 ratio
ACACGUAUAUUGUGGCGUAUAGUCAACAUGGAAGUAGACCGGCUCUGCUGAUUUGAAAUUUAGAUUUUUUUAAUUAUGUACUGGGGACAGGUUUUUGUCGCUUUACAUUGCUUCCUAGUU: 4.08 ratio
CAACGCCAUGGUGGACGGCUCAGAGCUGAGGAAAGUGCGCUCCAACUCCAGAGUGUACCACCGAUACUUUCUGCUGGAUGCUGAUAUGCAGUCUCUUAGGUGGGAGCCCUCUAAAAAGGA: 0.428 ratio
GGAGCAGCAUAGGCUGUUCAUGCUUUGGGAAAAUGAGCUUUGCUUUUUUAAAUAUUUAAAUAGGAUACUUUUAUAUGAUGGGUGCUUUGAGUGUGAAUGCAGCAGGCUCCAUUUCUGAGG: 0.991 ratio
